Measured values of several laboratories.
Protocols differ between the studies behind these lines. Several values in a cell are separate wells, animals, samples, runs or records. ± gives the spread as reported.
MAPK8: Mitogen-activated protein kinase 8 (MAPK8, Homo sapiens, UniProt P45983)
STING1 H232R: Stimulator of interferon genes protein (STING1, Homo sapiens, UniProt Q86WV6, H232R)

For CCC1(CC)C(=O)N(c2cccc(C)c2)C1=O, “activity vs control” read greater than 90% (Dipeptidyl peptidase 8 (Homo sapiens, UniProt Q6V1X1); enzyme activity, inhibitor; 5 µM).
CC(C)Oc1cc(Cl)ccc1CNc1cc(-c2ccccc2)nc2ncnn12 gave a cAMP luminescence of 40900 a.u. and 27100 a.u. and 24600 a.u. and 28400 a.u. (G-protein coupled receptor 3 (GPR3, Homo sapiens, UniProt P46089, M156A); cAMP level, cAMP GloSensor; 300 nM; higher = more cAMP).
With Fc1ccc(Nc2nc(NC3CCCCC3)c3cc(Br)ccc3n2)cc1F the maximal inhibition was 11.6% (Beta-2 adrenergic receptor (ADRB2, Homo sapiens, UniProt P07550, V126A); β-arrestin2 recruitment, antagonist, BRET; mutant V126A; relative to: isoprenaline maximal response).
With O=C(CCN(Cc1cccnc1)Cc1ccc(Cl)c(O)c1F)NO the remaining activity was 75 ± 5% (Astacin-like metalloendopeptidase (Astl, Mus musculus, UniProt Q6HA09); enzyme activity, inhibitor, fluorogenic; 0.25 µM).
With COC(=O)C1(C)C=C(C(=O)OC(C)(C)C)C(=O)CC1 (stereo not drawn) the fraction bound was 0.135 (MAPK8; D-peptide binding, inhibitor, FP peptide displacement; 500 µM; lower is stronger displacement).
Under “drug formation rate”, CN(C(=O)OCc1cc(C(=O)O)ccc1OP(=O)(O)O)C(=O)c1ccc(N2C(=S)N(c3ccc(C#N)c(C(F)(F)F)c3)C(=O)C2(C)C)cc1F is recorded as 4.16 pmol/min (Alkaline phosphatase, placental type (Homo sapiens, UniProt P05187); substrate; 100 µM, pH 7.6, 37 °C).
For Cc1ccc(-c2c(/C=C(\C#N)C(=O)NC(C)C)n(CCCO)c3ncnc(N)c23)cc1, the remaining binding was 100% (Tyrosine-protein kinase ABL1, phosphorylated (ABL1, Homo sapiens, UniProt P00519, T315I); cell-free assay, competition with immobilised ligand; 1 µM).
The pIC50 Z-score of COc1ccc(C(=O)N2c3ccc(F)cc3[C@@H](Nc3ccccc3)C[C@H]2C)cc1 is reported as -0.58 (Ecdysone receptor (Aedes albopictus, UniProt Q9U3Y4); ligand binding, inhibitor; intact cells; with: [3H]ponasterone A; direction not given).
CC(C)(C)OC(=O)C1=C[C@@](C)(C(=O)OCC#Cc2ccncc2)CCC1=O has a fraction bound of 0.862 (MAPK8; D-peptide binding, inhibitor, FP peptide displacement; 3.125 µM; lower is stronger displacement).
Cc1cn(CC(=O)N(CC(=O)N[C@H]2CCC[C@@H]2N(CC(=O)N[C@H]2COC[C@@H]2N(CC(=O)N[C@H]2COC[C@@H]2N(CC(=O)N[C@H]2COC[C@@H]2N(CC(=O)NCCOCCOCC(N)=O)C(=O)Cn2cnc3c(N)ncnc32)C(=O)Cn2cc(C)c(=O)[nH]c2=O)C(=O)Cn2cnc3c(N)ncnc32)C(=O)Cn2cnc3c(=O)[nH]c(N)nc32)[C@H]2CCC[C@@H]2NC(=O)CN(C(=O)Cn2cnc3c(=O)[nH]c(N)nc32)[C@H]2CCC[C@@H]2NC(=O)CN(C(=O)Cn2cc(C)c(=O)[nH]c2=O)[C@H]2COC[C@@H]2NC(=O)CN(C(=O)Cn2cnc3c(N)ncnc32)[C@H]2COC[C@@H]2NC(=O)CN(C(=O)Cn2cnc3c(=O)[nH]c(N)nc32)[C@H]2COC[C@@H]2N)c(=O)[nH]c1=O gave a ΔS of -168 ± 4.2 cal/mol/K (complementary RNA; duplex formation, UV melting curve fit; PBS; 1 µM).
N=C(N)NCCC[C@@H]1NC(=O)[C@H](Cc2ccccc2)NC(=O)CSC[C@@H](C(=O)N[C@@H](CC(=O)O)C(N)=O)NC(=O)[C@H](CCCNC(=N)N)NC(=O)[C@H](Cc2c[nH]c3ccccc23)NC(=O)[C@H](Cc2ccc(O)cc2)NC(=O)[C@H](Cc2ccc(O)cc2)NC(=O)[C@H](Cc2ccccc2)NC1=O gave a ΔTm of 8.36 °C (STING1 H232R; thermal stability, DSF; 50 µM).
The activation of CC(=O)C12NC(C)(C)CC1(C)C(=O)C1=C2c2c(c3c4n2C(C)(C)CC2=C4C4(CC(C)(C)NC(C)(C4)C2=O)CC3(C)C)C(=O)C(C)(C)N1 (single isomer, unassigned; (-)) is reported as 2.1% (P2X purinoceptor 7 (P2RX7, Homo sapiens, UniProt Q99572); ion current, agonist, whole-cell patch clamp; HEK293T; 10 µM).
CC(C)C[C@@H]1NC(=O)[C@H](Cc2ccccc2)NC(=O)CSC[C@@H](C(=O)NCC(N)=O)NC(=O)[C@H](C(C)C)NC(=O)[C@H](Cc2ccccc2)NC(=O)[C@H](Cc2ccc(O)cc2)NC(=O)[C@H](C(C)C)NC(=O)[C@H](CC(=O)O)NC(=O)[C@H](Cc2ccccc2)NC(=O)[C@H](CCCNC(=N)N)NC(=O)[C@H](Cc2ccccc2)N(C)C(=O)[C@H](C)NC(=O)[C@H](Cc2ccccc2)NC(=O)[C@H](C(C)C)NC1=O gave a ΔTm of -0.05 °C (STING1 H232R; thermal stability, DSF; 100 µM).
With Cc1cc(C(=O)Nc2nc3cccc(C)c3n2[C@H]2CCCCN(C(=O)/C=C/CN(C)C)C2)ccn1 the kinase activity was 24.8% (CDC2-like kinase 1 (Trypanosoma brucei brucei, UniProt Q382U0); ADP-Glo; 0.3125 µM).
With CC(=O)N(C)CCN1CCN(c2cnc3c(cc(C(=O)NCc4ccc(Cl)cc4)c(=O)n3CC(=O)N3CC(C)(F)C3)n2)C1=O the Hill slope was 0.73 (DNA polymerase catalytic subunit (Human cytomegalovirus, UniProt P08546); enzyme activity, inhibitor).
COC1CN([C@H]2CC[C@H]([C@@]3(C)Oc4c(Cl)cc(C(=O)NCc5c(SC)cc(C)[nH]c5=O)c(C)c4O3)CC2)C1 has a residence time of 138000 min (Histone-lysine N-methyltransferase EZH2 (EZH2, Homo sapiens, UniProt Q15910); binding; activated PRC2 with H3K27me3 peptide).
With CC(/C=C/C(=O)NO)=C\[C@@H](C)C(=O)c1ccc(N(C)C)cc1 the binding stoichiometry was 0.9 (Histone deacetylase 8 (HDAC8, Homo sapiens, UniProt Q9BY41); ITC; triethanolamine buffer; concentration not given, pH 7.5).
The remaining activity of CN(Cc1cc(C2CC2)on1)C(=O)c1cccc(-c2ccc3c(c2)CCO3)c1 is reported as 89.7% and 94.3% (Acetyl-CoA synthetase (Cryptococcus neoformans, UniProt J9VFT1); enzyme activity, inhibitor, coupled pyrophosphate; 25 µM).
Under “normalized kinase activity”, C#CCOC(=O)[C@@]1(C)C=C(C(=O)OC(C)(C)C)C(=O)CC1 is recorded as 0.741 and 0.675 and 0.682 (Mitogen-activated protein kinase 1 (MAPK1, Homo sapiens, UniProt P28482); enzyme activity, D-SENSOR; 133.3 µM, single replicate).
COc1cc(-c2cn(C)c(=O)c3cnccc23)cc(OC)c1CN(C)C has a ΔTm of 0.5 °C (Bromodomain-containing protein 3, BD1 (BRD3, Homo sapiens, UniProt Q15059)).
For O=C(c1ccccc1)N1CCN(CC(OCc2ccc3ccccc3c2)c2ccc(Cl)cc2Cl)CC1 (stereo not drawn), “activity vs control” read 106% (Serine/threonine-protein kinase ULK1 (ULK1, Homo sapiens, UniProt O75385); enzyme activity, inhibitor, ADP detection; 0.1 µM).
With CC(=O)N1c2ccc(-c3ccc(CNC(=O)c4cn5cc(-c6cnc(N)nc6)nc(N6CCOCC6)c5n4)cc3)cc2CC[C@@H]1C the remaining binding was 0% (Bromodomain-containing protein 3, BD2 (BRD3, Homo sapiens, UniProt Q15059); binding, competition with immobilised ligand; 10 µM).
O=C1C[C@H](c2nc(-c3ccc(F)c4cn[nH]c34)no2)CCCN1c1ccc(F)cc1 (racemic) has a cAMP inhibition of 76% and 71.4% and 66.9% (Cannabinoid receptor 2 (CNR2, Homo sapiens, UniProt P34972); agonist, GloSensor cAMP; CHO expressing CB2; 10 µM).
CCCCCCCCCCCCC/C=C/C=O: “isoTOP-ABPP competition ratio” 1.3 (Small glutamine-rich tetratricopeptide repeat-containing protein alpha (Homo sapiens, UniProt O43765); competitive isoTOP-ABPP, refers to: SGTA cysteine peptide; Ramos soluble proteome; 100 µM, with: iodoacetamide probe; relative to: DMSO over compound-treated, higher = stronger cysteine blockade).
Under “radius of gyration”, N=C(N)NCCC[C@H](NC(=O)[C@@H]1CCCN1C(=O)[C@H](CCCNC(=N)N)NC(=O)[C@@H]1CCCN1C(=O)[C@H](CCCNC(=N)N)NC(=O)[C@@H]1CCCN1C(=O)[C@H](CCCNC(=N)N)NC(=O)[C@@H]1CCCN1C(=O)[C@H](CCCNC(=N)N)NC(=O)[C@@H]1CCCN1C(=O)[C@H](CCCNC(=N)N)NC(=O)[C@@H]1CCCN1C(=O)[C@H](CCCNC(=N)N)NC(=O)[C@@H]1CCCN1C(=O)[C@H](CCCNC(=N)N)NC(=O)[C@@H]1CCCN1C(=O)[C@H](CCCNC(=N)N)NC(=O)[C@@H]1CCCN1C(=O)[C@H](CCCNC(=N)N)NC(=O)[C@@H]1CCCN1C(=O)[C@H](CCCNC(=N)N)NC(=O)[C@@H]1CCCN1C(=O)[C@H](CCCNC(=N)N)NC(=O)[C@@H]1CCCN1C(=O)[C@H](CCCNC(=N)N)NC(=O)[C@@H]1CCCN1C(=O)[C@H](CCCNC(=N)N)NC(=O)[C@@H]1CCCN1C(=O)[C@H](CCCNC(=N)N)NC(=O)[C@@H]1CCCN1C(=O)[C@H](CCCNC(=N)N)NC(=O)[C@@H]1CCCN1C(=O)[C@H](CCCNC(=N)N)NC(=O)[C@@H]1CCCN1C(=O)[C@H](CCCNC(=N)N)NC(=O)[C@@H]1CCCN1C(=O)[C@H](CCCNC(=N)N)NC(=O)[C@@H]1CCCN1C(=O)[C@H](CCCNC(=N)N)NC(=O)[C@@H]1CCCN1C(=O)[C@H](CCCNC(=N)N)NC(=O)[C@@H]1CCCN1C(=O)[C@H](CCCNC(=N)N)NC(=O)[C@@H]1CCCN1C(=O)[C@H](CCCNC(=N)N)NC(=O)[C@@H]1CCCN1C(=O)[C@H](Cc1ccc(O)cc1)NC(=O)[C@H](CO)NC(=O)CN)C(=O)O is recorded as 106 ± 5.09 Å (Nucleophosmin (NPM1, Homo sapiens, UniProt P06748); SANS Guinier analysis; 2 molar excess over NPM1, 25 °C).
CCCCCC(O)/C=C/C=O (stereo not drawn): “isoTOP-ABPP competition ratio” 2 (Myosin regulatory light chain 12B (MYL12B, Homo sapiens, UniProt O14950); competitive isoTOP-ABPP, refers to: MRLC2 cysteine peptide; Ramos soluble proteome; 100 µM, with: iodoacetamide probe; relative to: DMSO over compound-treated, higher = stronger cysteine blockade).
With CCOC(=O)C(CC)(CCCSCCOCCOCCOCCNc1ccc([N+](=O)[O-])c2nonc12)NC(=O)c1ccc(C2CC2)c(Cc2ccc(F)cc2)n1 (stereo not drawn) the Emax was 113% (Cannabinoid receptor 2 (Cnr2, Mus musculus, UniProt P47936); cAMP, agonist).

Repeated from above:
For CCC1(CC)C(=O)N(c2cccc(C)c2)C1=O, “activity vs control” read greater than 90% (Dipeptidyl peptidase 8 (Homo sapiens, UniProt Q6V1X1); enzyme activity, inhibitor; 5 µM).
O=C1C[C@H](c2nc(-c3ccc(F)c4cn[nH]c34)no2)CCCN1c1ccc(F)cc1 (racemic) has a cAMP inhibition of 76% and 71.4% and 66.9% (Cannabinoid receptor 2 (CNR2, Homo sapiens, UniProt P34972); agonist, GloSensor cAMP; CHO expressing CB2; 10 µM).
Under “drug formation rate”, CN(C(=O)OCc1cc(C(=O)O)ccc1OP(=O)(O)O)C(=O)c1ccc(N2C(=S)N(c3ccc(C#N)c(C(F)(F)F)c3)C(=O)C2(C)C)cc1F is recorded as 4.16 pmol/min (Alkaline phosphatase, placental type (Homo sapiens, UniProt P05187); substrate; 100 µM, pH 7.6, 37 °C).
